# Assay results collected from several papers.
# Each line is one published result; not all experiments were run side by side. Several values in a cell are separate wells, animals, samples, runs or records. Numbers after ± are the reported error.
# Sequence of UniProt P42866 (whole entry, looked up): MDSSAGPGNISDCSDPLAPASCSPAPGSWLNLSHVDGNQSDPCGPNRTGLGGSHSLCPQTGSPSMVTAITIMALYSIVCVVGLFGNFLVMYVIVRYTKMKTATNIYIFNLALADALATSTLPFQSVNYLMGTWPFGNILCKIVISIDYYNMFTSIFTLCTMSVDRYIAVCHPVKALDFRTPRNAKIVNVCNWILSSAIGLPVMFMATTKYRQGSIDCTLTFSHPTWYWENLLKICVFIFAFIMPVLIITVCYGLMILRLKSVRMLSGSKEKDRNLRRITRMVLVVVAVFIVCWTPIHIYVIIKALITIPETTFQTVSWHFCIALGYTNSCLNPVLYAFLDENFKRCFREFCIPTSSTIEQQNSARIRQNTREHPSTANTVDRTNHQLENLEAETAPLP
# Sequence of UniProt P09690 (whole entry, looked up): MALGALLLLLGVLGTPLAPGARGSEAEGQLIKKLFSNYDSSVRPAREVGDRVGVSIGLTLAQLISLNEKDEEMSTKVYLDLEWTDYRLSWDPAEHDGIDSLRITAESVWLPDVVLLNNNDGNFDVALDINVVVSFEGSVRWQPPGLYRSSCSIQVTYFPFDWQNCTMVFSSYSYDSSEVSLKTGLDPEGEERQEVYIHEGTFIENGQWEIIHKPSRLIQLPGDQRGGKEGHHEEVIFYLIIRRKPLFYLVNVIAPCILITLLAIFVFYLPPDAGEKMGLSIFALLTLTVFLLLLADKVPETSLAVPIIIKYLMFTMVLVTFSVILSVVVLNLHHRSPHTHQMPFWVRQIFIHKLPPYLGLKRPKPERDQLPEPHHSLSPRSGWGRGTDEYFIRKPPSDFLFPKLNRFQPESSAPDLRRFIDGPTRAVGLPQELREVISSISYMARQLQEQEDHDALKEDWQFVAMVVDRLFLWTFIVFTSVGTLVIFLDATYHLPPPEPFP
# Sequence of UniProt Q9NS75 (whole entry, looked up): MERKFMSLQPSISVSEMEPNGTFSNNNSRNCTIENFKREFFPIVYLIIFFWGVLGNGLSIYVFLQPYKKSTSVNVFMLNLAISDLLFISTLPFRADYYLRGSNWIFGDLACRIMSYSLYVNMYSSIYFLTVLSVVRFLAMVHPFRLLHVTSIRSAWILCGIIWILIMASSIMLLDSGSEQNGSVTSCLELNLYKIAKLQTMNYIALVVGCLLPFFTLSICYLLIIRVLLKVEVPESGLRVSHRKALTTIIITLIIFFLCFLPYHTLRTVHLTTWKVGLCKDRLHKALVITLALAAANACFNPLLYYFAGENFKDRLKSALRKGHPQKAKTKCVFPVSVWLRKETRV
# Sequence of UniProt P57059 (whole entry, looked up): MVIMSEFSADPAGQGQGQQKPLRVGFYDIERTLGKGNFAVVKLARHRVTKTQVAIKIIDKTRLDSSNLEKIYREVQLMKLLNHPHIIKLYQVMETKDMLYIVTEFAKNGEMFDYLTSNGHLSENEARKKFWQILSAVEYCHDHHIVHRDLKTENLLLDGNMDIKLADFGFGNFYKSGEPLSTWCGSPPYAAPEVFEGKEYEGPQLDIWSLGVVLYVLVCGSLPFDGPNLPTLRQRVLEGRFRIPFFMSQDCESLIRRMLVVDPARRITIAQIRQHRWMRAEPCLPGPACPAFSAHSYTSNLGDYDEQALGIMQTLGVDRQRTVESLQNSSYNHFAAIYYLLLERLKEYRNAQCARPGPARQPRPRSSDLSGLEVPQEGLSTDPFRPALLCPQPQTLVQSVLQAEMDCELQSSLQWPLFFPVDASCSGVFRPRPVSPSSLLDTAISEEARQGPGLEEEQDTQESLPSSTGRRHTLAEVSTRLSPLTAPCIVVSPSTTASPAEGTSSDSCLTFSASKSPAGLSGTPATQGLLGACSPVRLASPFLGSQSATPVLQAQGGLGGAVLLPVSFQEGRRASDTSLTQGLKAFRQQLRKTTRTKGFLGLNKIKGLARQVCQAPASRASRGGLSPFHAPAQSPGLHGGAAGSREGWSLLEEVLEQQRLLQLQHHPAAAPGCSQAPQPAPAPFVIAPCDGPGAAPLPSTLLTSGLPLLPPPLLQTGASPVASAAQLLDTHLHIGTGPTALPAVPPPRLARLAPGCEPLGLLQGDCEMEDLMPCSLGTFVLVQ
# Sequence of UniProt P02716 (whole entry, looked up): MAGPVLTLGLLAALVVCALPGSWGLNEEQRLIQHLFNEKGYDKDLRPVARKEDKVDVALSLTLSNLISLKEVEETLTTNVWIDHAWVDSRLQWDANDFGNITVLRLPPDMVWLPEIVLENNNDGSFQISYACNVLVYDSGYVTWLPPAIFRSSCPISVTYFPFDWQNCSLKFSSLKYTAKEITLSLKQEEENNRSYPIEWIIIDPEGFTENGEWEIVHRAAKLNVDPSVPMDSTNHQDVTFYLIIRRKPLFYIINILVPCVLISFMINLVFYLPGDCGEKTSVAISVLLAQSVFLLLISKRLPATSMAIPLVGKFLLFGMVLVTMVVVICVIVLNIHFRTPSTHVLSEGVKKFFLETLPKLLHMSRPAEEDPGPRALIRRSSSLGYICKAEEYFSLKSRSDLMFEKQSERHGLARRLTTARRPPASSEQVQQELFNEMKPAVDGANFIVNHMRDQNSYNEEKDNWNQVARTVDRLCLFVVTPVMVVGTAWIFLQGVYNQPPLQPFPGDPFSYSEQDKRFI
# Sequence of UniProt Q09161 (whole entry, looked up): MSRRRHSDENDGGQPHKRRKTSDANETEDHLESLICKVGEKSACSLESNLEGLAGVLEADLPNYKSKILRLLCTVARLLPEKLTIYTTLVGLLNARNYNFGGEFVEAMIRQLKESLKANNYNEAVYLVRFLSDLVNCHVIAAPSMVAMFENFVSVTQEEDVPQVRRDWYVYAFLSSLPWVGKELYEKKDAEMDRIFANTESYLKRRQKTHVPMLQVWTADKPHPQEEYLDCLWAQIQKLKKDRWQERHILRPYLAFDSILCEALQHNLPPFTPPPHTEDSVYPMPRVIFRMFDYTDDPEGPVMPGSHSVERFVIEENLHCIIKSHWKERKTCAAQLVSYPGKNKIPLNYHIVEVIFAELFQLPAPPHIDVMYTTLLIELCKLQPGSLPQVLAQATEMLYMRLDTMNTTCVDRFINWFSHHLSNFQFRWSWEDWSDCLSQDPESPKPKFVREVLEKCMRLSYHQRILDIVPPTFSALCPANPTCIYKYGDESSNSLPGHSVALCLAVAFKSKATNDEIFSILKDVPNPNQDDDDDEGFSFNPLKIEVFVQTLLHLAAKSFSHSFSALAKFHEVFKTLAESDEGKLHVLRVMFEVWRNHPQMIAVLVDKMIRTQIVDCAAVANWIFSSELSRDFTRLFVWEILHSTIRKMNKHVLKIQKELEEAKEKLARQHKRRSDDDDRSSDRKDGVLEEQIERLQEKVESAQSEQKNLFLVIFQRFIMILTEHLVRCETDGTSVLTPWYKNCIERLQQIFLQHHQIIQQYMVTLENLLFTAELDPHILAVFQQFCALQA
# Sequence of UniProt P20782 (whole entry, looked up): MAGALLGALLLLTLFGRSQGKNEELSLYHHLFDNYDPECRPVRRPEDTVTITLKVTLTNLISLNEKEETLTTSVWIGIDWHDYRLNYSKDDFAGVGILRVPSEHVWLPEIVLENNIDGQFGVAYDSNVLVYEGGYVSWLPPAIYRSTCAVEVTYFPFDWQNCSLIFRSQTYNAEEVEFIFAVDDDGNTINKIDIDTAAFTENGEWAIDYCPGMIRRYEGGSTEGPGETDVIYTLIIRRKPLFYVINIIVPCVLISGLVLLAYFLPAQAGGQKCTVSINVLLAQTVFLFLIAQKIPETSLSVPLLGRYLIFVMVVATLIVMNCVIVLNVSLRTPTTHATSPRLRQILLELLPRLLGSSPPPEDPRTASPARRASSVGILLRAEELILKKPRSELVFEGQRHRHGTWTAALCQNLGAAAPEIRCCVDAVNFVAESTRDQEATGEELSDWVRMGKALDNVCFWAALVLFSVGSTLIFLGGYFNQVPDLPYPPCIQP
# Sequence of UniProt Q13470 (whole entry, looked up): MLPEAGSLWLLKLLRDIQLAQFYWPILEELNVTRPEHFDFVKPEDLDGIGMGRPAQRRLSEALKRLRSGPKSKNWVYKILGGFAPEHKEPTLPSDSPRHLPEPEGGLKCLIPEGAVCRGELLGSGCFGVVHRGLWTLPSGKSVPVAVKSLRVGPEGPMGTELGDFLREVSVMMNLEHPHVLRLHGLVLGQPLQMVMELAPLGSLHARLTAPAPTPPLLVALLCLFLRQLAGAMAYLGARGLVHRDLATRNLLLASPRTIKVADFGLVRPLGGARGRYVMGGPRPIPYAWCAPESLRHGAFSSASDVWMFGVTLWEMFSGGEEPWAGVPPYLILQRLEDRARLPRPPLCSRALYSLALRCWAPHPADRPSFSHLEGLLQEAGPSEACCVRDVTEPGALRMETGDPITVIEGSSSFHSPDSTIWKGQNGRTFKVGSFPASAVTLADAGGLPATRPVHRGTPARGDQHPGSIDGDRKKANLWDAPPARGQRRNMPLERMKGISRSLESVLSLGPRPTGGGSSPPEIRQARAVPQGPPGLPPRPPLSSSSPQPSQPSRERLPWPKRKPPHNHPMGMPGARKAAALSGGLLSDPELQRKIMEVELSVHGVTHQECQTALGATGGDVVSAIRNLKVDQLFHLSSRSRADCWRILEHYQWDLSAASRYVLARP
# Sequence of UniProt P08988 (whole entry, looked up): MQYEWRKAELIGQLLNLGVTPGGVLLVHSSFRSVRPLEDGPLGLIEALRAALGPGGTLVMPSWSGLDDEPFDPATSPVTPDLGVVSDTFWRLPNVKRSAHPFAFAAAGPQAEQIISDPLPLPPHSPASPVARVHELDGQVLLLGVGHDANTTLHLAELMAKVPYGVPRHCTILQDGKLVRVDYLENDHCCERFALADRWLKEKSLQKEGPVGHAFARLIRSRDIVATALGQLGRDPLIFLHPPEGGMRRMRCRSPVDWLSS
Compound,target,assay,test system,conditions,scale,measurement,value
O=C(O)COP(=O)(O)O,"TPI1 (Saccharomyces cerevisiae, UniProt P00942, S211G)","enzyme activity, competitive inhibitor, GPDH/NADH-coupled",,"pH 8.3, 25 °C, ionic strength 0.1 NaCl, added: glyceraldehyde 3-phosphate substrate",baseline: mutant over wild type,Ki ratio,2.6
Nc1ncnc2c1ncn2[C@@H]1O[C@H](COP(=O)(O)OP(=O)(O)OP(=O)(O)O)[C@@H](O)[C@H]1O,YscN wild type,,,,,Km,1300 ± 400 µM
Cc1nc2cc(CCOCCCCCc3ccccc3)ccc2n1COCC[Si](C)(C)C,"ATP2A2 (Sus scrofa, UniProt P11607)",ATPase activity,,,,concentration with loss of stimulation,≥ 5 µM
COc1ccc(N2C(=O)N(c3c(C)cccc3Cl)Cc3cnc(Nc4ccc(C5CCN(C)CC5)cc4OC)nc32)nc1,"TNK1 (Homo sapiens, UniProt Q13470)",kinase activity,,0.5 µM,,inhibition,72%
[2H]c1c([2H])c([C@]2([2H])CCCN2C(=O)C(C)(C)Oc2ccc3cn[nH]c3c2)c([2H])c([2H])c1C([2H])([2H])[2H],"Ribosomal protein S6 kinase alpha-2, N-terminal kinase domain (RPS6KA2, Homo sapiens, UniProt Q15349)",KINOMEscan,,1 µM,baseline: DMSO control,remaining binding,81%
C[C@H]1CN(c2n[nH]c3nc(N[C@H]4CC[C@H](NS(=O)(=O)CCC(F)(F)F)CC4)ncc23)CCO1,"Nuclear cap-binding protein subunit 1 (Homo sapiens, UniProt Q09161)","Kinobeads competition, refers to: NCBP1",,"0.032 µM, unit not given",baseline: vehicle,remaining binding,1.09
CN(C(=O)n1cnc(-c2ccc[n+]([O-])c2)c1)C1CCCCC1,"CYSLTR2 (Homo sapiens, UniProt Q9NS75)",radioligand binding,,"50 µM, added: [3H]LTD4",,inhibition,1%
COc1ccc(F)cc1C(=O)NCc1ccc(-c2nn([C@@H](C)C(F)(F)F)c(N)c2C(N)=O)cc1,"YES1 (Homo sapiens, UniProt P07947)","target engagement, NanoBRET",HEK293,,baseline: YES1 over BTK,selectivity ratio,> 7600
Oc1c(Cl)cc(-c2cccc(F)c2)cc1Cl,"SULT2A1 (Homo sapiens, UniProt Q06520)",substrate,,"pH 7.0, 37 °C, added: PAPS 200 µM",,Vmax,47.7 ± 5.5 nmol/min/mg
CC[N+]1(CC)CCN(c2ccc(C)cc2)CC1,"Nicotinic acetylcholine receptor alpha1/beta1/epsilon/delta (Mus musculus, UniProt P02716+P04756+P09690+P20782)","ion current, inhibitor, two-electrode voltage clamp",Xenopus oocytes,"30 µM, after co-application, unit not given, added: ACh 30 µM",baseline: ACh alone,ACh response,0.639 ± 0.271
COc1cc(N)c(Cl)cc1C(=O)NC1CN2CCC1CC2 (stereo not shown),"SUCNR1 (Homo sapiens, UniProt Q9BXA5)","β-arrestin recruitment, TANGO luminescence",,concentration not given,baseline: basal luminescence,log2 fold change,0.278
Brc1ccc(COc2ccccc2CNCc2ccccc2)cc1,"Aminoglycoside N(3)-acetyltransferase IV (aacC4, Salmonella sp, UniProt P08988)","neomycin acetylation, inhibitor",,added: neomycin,,highest concentration without inhibition,> 200 µM
C[C@@H](NC(=O)[C@@H](N)Cc1ccc(O)cc1)C(=O)NCC(=O)N(C)[C@@H](Cc1ccccc1)C(=O)NCCO,"Oprm1 (Mus musculus, UniProt P42866)",agonist,mouse spinal cord membranes,1.78 µM,baseline: basal binding,GTPγS binding,0.97% and 6.66% and 1.07% and 3.57%
CC(C)(COP(=O)(O)OP(=O)(O)OCC1OC(n2cnc3c(N)ncnc32)C(O)C1OP(=O)(O)O)C(O)C(=O)NCCC(=O)NCCSC(=O)CC(O)(CC(=O)O)C(=O)O (stereo not shown),"gltA (Thermoplasma acidophilum, UniProt P21553, D318G)","citryl-CoA hydrolysis, substrate",,concentration not given,baseline: wild type over mutant,decrease in hydrolysis activity,~2300 fold
Cc1ncsc1-c1ccc(CNC(=O)[C@@H]2C[C@@H](O)CN2C(=O)[C@@H](NC(=O)C2(F)CC2)C(C)(C)C)c(OCCOc2ccc(CN3CCN(c4cc(-c5ccccc5O)nnc4N)CC3)cc2)c1,"SMARCA4 (Homo sapiens, UniProt P51532)","degrader, immunoblot",SMARCA4 wild-type lung cancer cells,"96 h, median of twelve cell lines",,Dmax,95%
COc1ncccc1-c1cnn2ccc(N3CCN(C(=O)OC(C)C)CC3)nc12,"SIK1 (Homo sapiens, UniProt P57059)",KINOMEscan binding,,1 µM,baseline: untreated control,remaining binding,100%

# A few entries again:
Compound,target,assay,test system,conditions,scale,measurement,value
C[C@H]1CN(c2n[nH]c3nc(N[C@H]4CC[C@H](NS(=O)(=O)CCC(F)(F)F)CC4)ncc23)CCO1,"Nuclear cap-binding protein subunit 1 (Homo sapiens, UniProt Q09161)","Kinobeads competition, refers to: NCBP1",,"0.032 µM, unit not given",baseline: vehicle,remaining binding,1.09
